{"data": "Published values collected from several papers", "CD38": "ADP-ribosyl cyclase/cyclic ADP-ribose hydrolase 1 (CD38, Homo sapiens, UniProt P28907)", "MAPK14": "Mitogen-activated protein kinase 14 (MAPK14, Homo sapiens, UniProt Q16539)", "note": "Lines come from different studies, so protocols differ. ± gives the spread as reported.", "sequence of UniProt P28907 (whole entry, looked up)": "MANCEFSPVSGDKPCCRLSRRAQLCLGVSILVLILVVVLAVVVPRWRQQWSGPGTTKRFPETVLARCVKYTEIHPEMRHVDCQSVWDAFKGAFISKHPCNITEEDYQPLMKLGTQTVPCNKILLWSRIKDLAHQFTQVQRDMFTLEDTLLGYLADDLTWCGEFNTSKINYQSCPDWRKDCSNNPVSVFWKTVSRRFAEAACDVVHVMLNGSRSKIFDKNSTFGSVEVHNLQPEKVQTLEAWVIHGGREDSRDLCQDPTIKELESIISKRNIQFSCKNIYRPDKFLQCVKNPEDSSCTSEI", "sequence of UniProt Q16539 (whole entry, looked up)": "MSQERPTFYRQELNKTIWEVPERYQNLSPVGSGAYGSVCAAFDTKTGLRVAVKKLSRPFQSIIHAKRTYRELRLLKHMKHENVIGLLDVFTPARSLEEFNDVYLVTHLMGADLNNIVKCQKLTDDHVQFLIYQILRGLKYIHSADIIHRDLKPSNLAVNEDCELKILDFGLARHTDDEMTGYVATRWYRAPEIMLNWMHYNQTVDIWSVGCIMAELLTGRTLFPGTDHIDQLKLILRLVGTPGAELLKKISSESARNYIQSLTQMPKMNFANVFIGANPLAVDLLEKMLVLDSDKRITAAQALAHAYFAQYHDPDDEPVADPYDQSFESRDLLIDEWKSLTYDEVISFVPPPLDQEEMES", "sequence of UniProt Q96GD4 (whole entry, looked up)": "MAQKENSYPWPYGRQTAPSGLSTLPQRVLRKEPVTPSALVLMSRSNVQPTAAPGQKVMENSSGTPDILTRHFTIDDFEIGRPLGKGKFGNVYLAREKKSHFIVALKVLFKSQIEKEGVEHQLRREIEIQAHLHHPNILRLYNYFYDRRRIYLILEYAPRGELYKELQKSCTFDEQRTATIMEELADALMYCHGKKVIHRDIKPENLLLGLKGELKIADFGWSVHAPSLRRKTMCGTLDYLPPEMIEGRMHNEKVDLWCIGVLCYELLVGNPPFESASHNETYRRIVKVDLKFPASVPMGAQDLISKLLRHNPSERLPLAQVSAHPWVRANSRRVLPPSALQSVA", "sequence of UniProt P08237 (whole entry, looked up)": "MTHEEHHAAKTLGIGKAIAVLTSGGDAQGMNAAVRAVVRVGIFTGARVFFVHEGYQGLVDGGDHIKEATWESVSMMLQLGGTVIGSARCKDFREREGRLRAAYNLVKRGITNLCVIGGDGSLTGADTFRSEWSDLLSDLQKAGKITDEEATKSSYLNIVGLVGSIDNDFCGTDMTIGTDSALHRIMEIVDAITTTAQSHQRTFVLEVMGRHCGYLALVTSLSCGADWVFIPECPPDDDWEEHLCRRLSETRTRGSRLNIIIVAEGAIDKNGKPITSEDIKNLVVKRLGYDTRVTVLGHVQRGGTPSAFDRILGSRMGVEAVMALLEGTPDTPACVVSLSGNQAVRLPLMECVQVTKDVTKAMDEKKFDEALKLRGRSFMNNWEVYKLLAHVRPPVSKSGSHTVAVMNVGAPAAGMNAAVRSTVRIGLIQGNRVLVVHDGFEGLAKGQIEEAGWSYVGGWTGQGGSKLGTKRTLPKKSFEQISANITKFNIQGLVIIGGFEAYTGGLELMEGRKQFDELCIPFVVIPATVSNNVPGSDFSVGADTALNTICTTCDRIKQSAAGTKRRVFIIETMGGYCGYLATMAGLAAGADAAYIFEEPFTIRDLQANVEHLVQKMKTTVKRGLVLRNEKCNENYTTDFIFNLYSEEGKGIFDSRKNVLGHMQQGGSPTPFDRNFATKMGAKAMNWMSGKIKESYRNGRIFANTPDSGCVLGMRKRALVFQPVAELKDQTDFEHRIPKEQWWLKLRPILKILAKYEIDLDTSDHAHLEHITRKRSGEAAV", "sequence of UniProt P11309 (whole entry, looked up)": "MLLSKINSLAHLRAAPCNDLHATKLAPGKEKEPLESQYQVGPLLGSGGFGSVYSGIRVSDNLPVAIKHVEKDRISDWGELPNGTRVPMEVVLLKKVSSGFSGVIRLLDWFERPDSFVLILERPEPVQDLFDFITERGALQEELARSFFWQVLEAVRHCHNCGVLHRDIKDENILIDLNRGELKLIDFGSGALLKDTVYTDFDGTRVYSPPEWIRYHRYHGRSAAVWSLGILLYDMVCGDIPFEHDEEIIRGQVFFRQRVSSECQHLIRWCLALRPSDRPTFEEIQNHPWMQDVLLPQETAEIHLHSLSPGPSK", "sequence of UniProt Q8IUX4 (whole entry, looked up)": "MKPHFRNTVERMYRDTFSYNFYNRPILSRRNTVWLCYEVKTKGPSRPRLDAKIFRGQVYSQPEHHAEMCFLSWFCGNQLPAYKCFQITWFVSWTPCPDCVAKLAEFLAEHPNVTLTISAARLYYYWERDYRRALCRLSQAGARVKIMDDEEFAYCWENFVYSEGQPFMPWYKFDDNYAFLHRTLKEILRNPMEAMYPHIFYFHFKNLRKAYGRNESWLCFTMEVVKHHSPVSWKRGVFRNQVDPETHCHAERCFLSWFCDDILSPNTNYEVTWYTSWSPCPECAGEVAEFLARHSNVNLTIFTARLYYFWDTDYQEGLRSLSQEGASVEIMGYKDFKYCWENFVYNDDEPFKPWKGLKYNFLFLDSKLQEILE"}
{"SMILES": "Cc1cc(O)c(C(=O)/C=C/c2ccc(Cl)cc2)c(=O)o1", "target": "CD38", "test": "hydrolase activity, fluorometric", "conditions": "50 µM, added: ε-NAD+ substrate", "how to read": "baseline: untreated", "remaining activity": "87.3 ± 0.3%"}
{"SMILES": "COc1ccc(NC(=O)Nc2ccc3c(c2)C(=O)N(C(C)CO)CC(C)C(CN(C)Cc2ccc4c(c2)OCO4)O3)cc1 (stereo not drawn)", "target": "Aurora kinase B (AURKB, Homo sapiens, UniProt Q96GD4)", "test": "kinase activity", "conditions": "0.03 µM", "how to read": "baseline: control", "remaining activity": "< 25%"}
{"SMILES": "CC1(C)C2CC3C(c4ccccc4)c4c(O)c(C=O)c(O)c(C=O)c4OC3(C)C1C2 (single isomer, unassigned; (+))", "target": "PFKM (Homo sapiens, UniProt P08237)", "system": "HEK-293T cell lysate", "conditions": "100 µM, 2 h, 37 °C, added: fructose 6-phosphate", "remaining activity": "85%"}
{"SMILES": "N=C(N)NCCC[C@@H]1NC(=O)[C@H](Cc2c[nH]c3ccccc23)NC(=O)[C@H](CCCNC(=N)N)NC(=O)[C@H](Cc2c[nH]c3ccccc23)NC(=O)[C@H](CCCNC(=N)N)NC(=O)[C@H](Cc2c[nH]c3ccccc23)NC(=O)[C@H](CCCNC(=N)N)NC(=O)[C@H](Cc2c[nH]c3ccccc23)NC(=O)[C@H](CCCNC(=N)N)NC(=O)[C@H](Cc2c[nH]c3ccccc23)NC(=O)[C@H](CCCNC(=N)N)NC(=O)[C@H](Cc2c[nH]c3ccccc23)NC(=O)[C@H](CCCNC(=N)N)NC(=O)[C@H](Cc2c[nH]c3ccccc23)NC(=O)[C@H](CCCNC(=N)N)NC(=O)[C@H](Cc2c[nH]c3ccccc23)NC(=O)[C@H](CCCNC(=N)N)NC(=O)[C@H](Cc2c[nH]c3ccccc23)NC1=O", "target": "MAPK14", "test": "kinase activity, Reaction Biology radiometric", "conditions": "concentration not given, added: ATP 200 µM", "how to read": "baseline: DMSO", "remaining activity": "61%"}
{"SMILES": "COc1ccc(-c2cc(/C=C3/SC(=S)NC3=O)no2)cc1", "target": "CD38", "test": "enzyme activity, inhibitor, fluorescence", "conditions": "50 µM", "remaining activity": "17.6%"}
{"SMILES": "CN(CC(=O)c1ccc2[nH]c(=O)[nH]c2c1)Cc1ccco1", "target": "DNA dC->dU-editing enzyme APOBEC-3F (APOBEC3F, Homo sapiens, UniProt Q8IUX4)", "test": "enzyme activity, inhibitor, alkaline cleavage", "system": "purified enzyme from 293T cells", "conditions": "700 µM", "remaining activity": "no effect"}
{"SMILES": "CC1(C)CCN(Cc2ccc(C(=O)NC[C@]3(O)CCCN(c4cc(NCc5ccccc5)ncn4)C3)c(O)c2)CC1", "target": "PIM1 (Homo sapiens, UniProt P11309)", "test": "radiometric", "conditions": "10 µM, added: 10 µM ATP", "remaining activity": "95%"}
{"SMILES": "COc1cc(/C=C2/SC(=S)N(CC(=O)Nc3cccc(C(=O)O)c3)C2=O)cc(OC)c1OC", "target": "CD38", "test": "cyclase activity, fluorometric", "conditions": "50 µM, added: NGD+ substrate", "how to read": "baseline: untreated", "remaining activity": "38.4 ± 25%"}
{"SMILES": "CC(=O)N[C@@H](Cc1c[nH]c2ccccc12)C(=O)N[C@@H](Cc1c[nH]c2ccccc12)C(=O)N[C@@H](Cc1c[nH]c2ccccc12)C(=O)N[C@@H](Cc1c[nH]c2ccccc12)C(=O)N[C@@H](Cc1c[nH]c2ccccc12)C(=O)N[C@@H](Cc1c[nH]c2ccccc12)C(=O)N[C@@H](Cc1c[nH]c2ccccc12)C(=O)NCCCC[C@@H]1NC(=O)[C@H](CCCNC(=N)N)NC(=O)[C@H](CCCNC(=N)N)NC(=O)[C@H](CCCNC(=N)N)NC(=O)[C@H](CCCNC(=N)N)NC(=O)[C@H](CCCNC(=N)N)NC1=O", "target": "MAPK14", "test": "kinase activity, Reaction Biology radiometric", "conditions": "concentration not given, added: ATP 200 µM", "how to read": "baseline: DMSO", "remaining activity": "64.2%"}
{"note": "For quick reference, copied from above:"}
{"SMILES": "COc1cc(/C=C2/SC(=S)N(CC(=O)Nc3cccc(C(=O)O)c3)C2=O)cc(OC)c1OC", "target": "CD38", "test": "cyclase activity, fluorometric", "conditions": "50 µM, added: NGD+ substrate", "how to read": "baseline: untreated", "remaining activity": "38.4 ± 25%"}
